Assay results gathered from unrelated publications.
± marks the error that the study gave. In brackets after ≈: the same amount, converted by molar mass.

COC(=O)N[C@H](C(=O)N[C@@H](Cc1ccccc1)[C@@H](O)CN(Cc1ccc(-c2ccccn2)cc1)NC(=O)[C@@H](NC(=O)OC)C(C)(C)C)C(C)(C)C — Vd/F (population PK model; pregnant women, third trimester; oral, median, added: with tenofovir): 127 L
C[C@]12CC[C@@H]3c4ccc(O)cc4CC[C@H]3[C@@H]1C[C@@H](O)[C@@H]2O — maximum serum concentration (GC-MS; breast cancer women on NSAI, serum; vaginal, 0.03 mg, 6 h, day 0): 0 ng/mL
Cc1[nH]c(=O)c(CNC(=O)c2ccc(Br)o2)c2c1CCCC2 — kinetic solubility (U-HPLC; 20% DMSO in water): 101 µg/mL (≈ 277 µM)
Cc1nc2cccc(OCC(C)(C)C(=O)NC(C)C)c2c(N)c1C(=O)O — AUC(0-t) (female Sprague-Dawley rat, plasma; oral, 100 mg/kg): 279 ng·h/mL
COc1ccc(-c2oc3c(OC)c(OC)c(OC)c(OC)c3c(=O)c2OC)cc1OC — tissue to peel content ratio (C57BL/6 mouse, male, brain; oral, 1% w/w in diet, 6 weeks, orange peel extract diet; baseline: content in orange peel): 0.019%
O=C(O)[C@H](c1ccccc1Cl)N1CCc2sccc2C1 — deviation from nominal (HPLC-MS/MS; feline EDTA plasma; 24 h, -20 °C, storage stability): -1%
CN1CCc2nc(C(=O)N[C@@H]3C[C@@H](C(=O)N(C)C)CC[C@@H]3NC(=O)C(=O)Nc3ccc(Cl)cn3)sc2C1 — Ctrough (human; 60 mg once daily, day 4): 15.4 ± 6.19 ng/mL
CC(=O)O[C@H]1C(=O)[C@@]2(C)[C@H]([C@H](OC(=O)c3ccccc3)[C@]3(O)C[C@H](OC(=O)[C@H](O)[C@@H](NC(=O)c4ccccc4)c4ccccc4)C(C)=C1C3(C)C)[C@]1(OC(C)=O)CO[C@@H]1C[C@@H]2O — clearance (non-compartmental; human patients, plasma; intravenous, 200 mg/m^2, added: lenvatinib 6 mg twice daily): 270 ± 48.5 mL/min
OC[C@H]1O[C@@H](c2ccc(F)c(Cc3cc4ccccc4s3)c2)[C@H](O)[C@@H](O)[C@@H]1O — tissue/plasma ratio (Wistar rat, male, small intestine; oral, dose not given, 8 h; baseline: small intestine over plasma concentration): 348 ± 105
CCCC[C@H](NC(C)=O)C(=O)N[C@H]1CCC(=O)NC[C@@H](C(=O)N[C@@H](Cc2c[nH]c3ccccc23)C(N)=O)NC(=O)[C@H](CCCNC(=N)N)NC(=O)[C@@H](Cc2ccccc2)NC(=O)[C@H](Cc2c[nH]cn2)NC1=O — AUC(0-last) (beagle dog, male, plasma; subcutaneous, 8.0 mg/kg daily, day 1): 1280 ng·h/mL
NCCCC[C@@H]1NC(=O)[C@@H](Cc2c[nH]c3ccccc23)NC(=O)[C@H](c2ccccc2)NC(=O)[C@@H]2C[C@@H](OC(=O)NCCN)CN2C(=O)[C@H](Cc2ccccc2)NC(=O)[C@H](Cc2ccc(OCc3ccccc3)cc2)NC1=O — beta half-life (radioimmunoassay; healthy human male volunteers, plasma; subcutaneous, 300 µg): 10.7 ± 1 h
CS(=O)(=O)Nc1ccc(C(=O)O[C@@H](Cc2c(Cl)c[n+]([O-])cc2Cl)c2ccc(OC(F)F)c(OCC3CC3)c2)cc1OCC1CC1 — Cmax (human, plasma; inhaled, 2000 µg twice daily, day 1, multi-dose dry powder inhaler): 0.928 ng/mL
CC(C)=CCC[C@](C)(O[C@@H]1O[C@H](CO)[C@@H](O)[C@H](O)[C@H]1O)[C@H]1CC[C@]2(C)[C@@H]1[C@H](O)C[C@@H]1[C@@]3(C)CC[C@H](O)C(C)(C)[C@@H]3[C@@H](O[C@@H]3O[C@H](CO)[C@@H](O)[C@H](O)[C@H]3O)C[C@]12C — post-preparative stability accuracy (rat, extracted tissue homogenate QC samples; 0.01 µg/mL, 24 h, 15 °C, autosampler): 103 ± 4.8%
C[C@@H](O)[C@H]1C(=O)N2C(C(=O)O)=C(S[C@@H]3CN[C@H](C(=O)N(C)C)C3)[C@H](C)[C@H]12 — time above MIC (microdialysis; pig (Danish Landrace), cancellous bone; iv infusion, 1000 mg over 10 min, MIC 0.25 µg/mL, added: vancomycin co-administered): 256 min

For quick reference, copied from above:
COC(=O)N[C@H](C(=O)N[C@@H](Cc1ccccc1)[C@@H](O)CN(Cc1ccc(-c2ccccn2)cc1)NC(=O)[C@@H](NC(=O)OC)C(C)(C)C)C(C)(C)C — Vd/F (population PK model; pregnant women, third trimester; oral, median, added: with tenofovir): 127 L
CC(=O)O[C@H]1C(=O)[C@@]2(C)[C@H]([C@H](OC(=O)c3ccccc3)[C@]3(O)C[C@H](OC(=O)[C@H](O)[C@@H](NC(=O)c4ccccc4)c4ccccc4)C(C)=C1C3(C)C)[C@]1(OC(C)=O)CO[C@@H]1C[C@@H]2O — clearance (non-compartmental; human patients, plasma; intravenous, 200 mg/m^2, added: lenvatinib 6 mg twice daily): 270 ± 48.5 mL/min
